Experimental data gathered from unrelated publications.
Each line is one published result; not all experiments were run side by side. ± gives the spread as reported. ≈ marks a conversion by molar mass, not a printed value.

CCN(CC)CC(=O)Nc1cccc(-n2cc(-c3ccc4ccc(-c5cn(-c6cccc(NC(=O)CN(CC)CC)c6)nn5)cc4c3)nn2)c1
HIF-2α protein level (HIF-2α; Western blot; nude mouse, tumour xenograft; ip, 15 mg/kg, within 6 h): decreased

C=CC(=O)N1[C@@H](c2ccc3c(c2)OCO3)c2[nH]c3ccccc3c2C[C@H]1C(=O)N1CCN2CCOC[C@H]2C1
inhibition (human cyclin E1 N112C:CDK2 complex; kinase activity; concentration not given, biochemical, together with: RB1 peptide or histone H1 substrate): no inhibition

COc1ccc(-c2cc(C(F)(F)F)nc(NCc3ccccc3)n2)cc1OC
efficacy (secretin receptor (endogenous); cAMP accumulation, allosteric modulator; NG108-15; 25 µM, together with: secretin(3-27)): no effect

CC[C@H](C)[C@H](NC(=O)[C@@H]1CCCN1C(=O)[C@H](CCCNC(=N)N)NC(=O)[C@@H]1CCCN1C(=O)[C@@H]1CCCN1C(=O)[C@@H](NC(=O)[C@@H]1CCCN1C(=O)[C@H](CCCNC(=N)N)NC(=O)[C@@H]1CCCN1C(=O)[C@H](CC(C)C)NC(=O)[C@H](Cc1ccc(O)cc1)NC(=O)[C@H](CO)NC(=O)CNC(=O)[C@H](CCCCN)NC(=O)[C@H](CC(=O)O)NC(=O)[C@@H](NC(=O)[C@H](CCCCN)NC(=O)c1ccc2c(c1)C(=O)OC21c2ccc(O)cc2Oc2cc(O)ccc21)C(C)C)[C@@H](C)O)C(=O)N[C@@H](Cc1ccc(O)cc1)C(=O)N[C@@H](CC(N)=O)C(=O)N[C@@H](CCCNC(=N)N)C(=O)N[C@@H](CC(N)=O)C(=O)NCC(=O)N1CCC[C@H]1C(=O)N[C@@H](CCCNC(=N)N)C(=O)N[C@@H](CCC(N)=O)C(=O)N[C@@H](CC1CCCCC1)C(=O)N[C@@H](CC(=O)O)C(=O)N[C@@H](CC(C)C)C(=O)N[C@@H](Cc1ccccc1)C(=O)O
Kd (70S ribosome Escherichia coli; ITC; pH 7.5, 30 °C): > 10 µM

COc1cc(CNC(=O)C[C@H](C)CCC=C(C)C)ccc1OCc1cn(-c2ccc([N+](=O)[O-])cc2)nn1
growth percent (UACC-257 melanoma cells; SRB; 10 µM, 48 h): 69.4%

O=C(/C=C/c1ccccc1)OCCCC[P+](c1ccccc1)(c1ccccc1)c1ccccc1
GSH-Px activity (glutathione peroxidase, rat liver mitochondria; 10 µM, 15 and 30 min): no effect

CCC/C(=C\C1=C(F)C(=O)c2ccccc2C1=O)C(=O)N(CC)CC
EC50 (NF-κB; reporter gene, luciferase reporter; NF90-8; 24 h, basal activity): 11.9 ± 0.81 µM

O=C(CCl)Sc1nnc(-c2n[nH]c(=O)c3ccccc23)o1
protein level reduction (topoisomerase II; ELISA; HepG2; IC50, 8 h; relative to: untreated): 86%

COc1cc(CCC(C)=O)ccc1O
IC50 (mouse mAb 1-G12; antibody binding, indirect competitive ELISA): 1020 ng/mL (≈ 5.25 µM)

COc1cc(CNC(=O)C[C@H](C)CCC=C(C)C)ccc1O
growth percent (SR leukaemia cells; SRB; 10 µM, 48 h): 90.6%

CCCCC/C=C/C(=O)CCc1ccc(O)c(OC)c1
IC50 (mouse mAb 1-G12; antibody binding, indirect competitive ELISA; together with: coating antigen 1-OVA): 1850 ng/mL (≈ 6.69 µM)

Cc1c(-c2cccc(C3=NCCN3)c2)oc(-c2cccc(C3=NCCN3)c2)c1C
ΔTm (T-loop duplex DNA; duplex stabilisation, FRET melting; 1 µM): < 2 °C

Nc1ncnc2c1ncn2[C@H]1C[C@H](O)[C@@H](COP(=O)(O)OP(=O)(O)[C@@H](F)P(=O)(O)O)O1
delta effective pKa4 (truncated human DNA polymerase lambda; dNTP incorporation, single-turnover kinetics; B sequence, A·T pair; relative to: non-enzymatic LFER line): 0 pK units

CSCc1ccccn1.F[P-](F)(F)(F)(F)F.F[P-](F)(F)(F)(F)F.[Ru+2].c1ccc(-c2ccccn2)nc1.c1ccc(-c2ccnc3c2ccc2c(-c4ccccc4)ccnc23)cc1
time to DNA binding (pUC19 plasmid DNA; agarose gel electrophoresis; concentration not given, together with: green light 19 J/cm^2): ≤ 1 h

COc1ccc2c(c1)c1c(n2CO)CN2CCc3cc(OCc4cccc(F)c4)c(OC)cc3C2C1 (stereo not shown)
PCSK9 protein level (PCSK9 human; Western blot; HepG2; 5 µM, 24 h, unit not given; relative to: vehicle): 0.48 ± 0.02

CCSC[C@H](NC(=O)[C@H](Cc1ccc(O)cc1)NC(=O)[C@@H](NC(=O)[C@H](CCCNC(=N)N)NC(=O)CNC)C(C)C)C(=O)N[C@@H](Cc1c[nH]cn1)C(=O)N1CCC[C@H]1C(=O)N[C@@H](CC(C)C)C(=O)O
EC50 (angiotensin II receptor type 1, human; aldosterone secretion, agonist, EIA; H295R, β-arrestin1 overexpressing): 0.055 ± 0.0212 µM

Some of these lines once more:
O=C(/C=C/c1ccccc1)OCCCC[P+](c1ccccc1)(c1ccccc1)c1ccccc1
GSH-Px activity (glutathione peroxidase, rat liver mitochondria; 10 µM, 15 and 30 min): no effect
